Results collected from several papers.
A part holds a random share of what one study measured. Positions count from the first letter of the parent shown.

Block 1 — method: RNA Bind-n-Seq; form: RNA; matrix: in vitro; concentration: not given; baseline: input RNA pool; reading: higher = stronger binding
Target: RING finger protein unkempt homolog, zinc fingers 1-6, GST-SBP tag (UNK, Homo sapiens, UniProt Q9C0B0, residues 30-357)
UniProt Q9C0B0, sequence (30-357, looked up): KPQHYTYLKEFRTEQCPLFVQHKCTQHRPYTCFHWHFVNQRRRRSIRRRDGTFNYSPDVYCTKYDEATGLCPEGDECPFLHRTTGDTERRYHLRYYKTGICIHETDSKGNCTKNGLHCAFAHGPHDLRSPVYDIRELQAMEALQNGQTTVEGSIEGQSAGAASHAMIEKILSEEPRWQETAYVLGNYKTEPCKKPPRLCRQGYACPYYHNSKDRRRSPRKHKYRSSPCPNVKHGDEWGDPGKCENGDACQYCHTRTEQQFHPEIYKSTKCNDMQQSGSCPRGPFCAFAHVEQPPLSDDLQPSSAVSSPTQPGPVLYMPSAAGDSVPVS
Notes: RNA with constant flanks, human and mouse sites, ends assumed
All sequences stand within: GGGAGUUCUACAGUCCGACGAUC … CAACAGAGGAUUGAGCAUCA
Oligonucleotide	bound/input enrichment
CAUGUCCAGCUUCUCUAGGGCGCCCCAGCAAUGGGCCACUUUUGCUCGAAUGUGGUAUCUCUUAGAUGGCAAAAUGCAGCCCCCUGGCAAACUUGCGGUUAUAGCAUCCAACAAACUGCA	0.218 ratio
UCUCUUCUCUUAAGUUAUGGUGCAGACCCAACACUGCUCAAUUGUCACAAUAAAAGUGCUAUAGACUUGGCUCCCACACCACAGUUAAAAGAAAGAUUAGCAUAUGAAUUUAAAGGCCAC	6.11 ratio
CAGGACACCAUUAGCAGGGGCUCAGAUGACUCAGUGCCAGUUAUUUCAUUUAAAGAUGCUGCUUUUGAUGAUGUCAGUGGUACUGAUGAAGGAAGACCUGAUCUUCUUGUAAAUUUACCU	0.802 ratio
CUGGAGAGAAUAAAGAGCAGUCGCAAAUGAAGCUGCCCCACUCCCCCGGCACCCUGCAGCUUUAGUUUACUAAACUAGAAGUCCUCAUAGUUUAAAAUGGCCUCAGCAGGCCUAGUGUAU	23 ratio
CUUCAGUUACAUCCCAGGGAAGAUGCUUGCAUCCCCAAUACAAACUAUGGUGUUCUCUUAAUAGAAUUUUUUGAAUUAUAUGGACGACACUUCAAUUAUUUAAAGACUGGCAUCCGGAUA	1.34 ratio
GCUGGAGAGGACUCAGCUCUGGGAGCUGAGCUCUGCGAGGAGACCCCUGUGAAUGACAACUCAUCCAUUGUGGUACGCAUCGCACCUGAGGAAAGGCAGAAAUAUGAGGAAGAGAUCCGC	0.186 ratio
UGGAACUGUUACUGCCUUGUCCUAGAGUUGUCCUGAUCAGGCUUGGGGCCUAGUUACAGAUUAGUCUUAAAGAAUUGCAUUAACUUAAAAAAAAUCAAACCUUGGCAAGAGCUAAAAUAA	3.13 ratio
GAUGUUCCACCUGCUCAGAUCUAUCCUCUCCCUAAGCAACAGAACCUUCCUAAGAGACCUACUAGUUUGCCUUUGAACACCAAAAAUUCAACAAAAGAACCCCGGCUAAAAUUUGGCAAC	0.681 ratio

Block 2 — method: RNA Bind-n-Seq; form: RNA; matrix: in vitro; concentration: 365 nM; baseline: no-protein control; reading: higher = stronger binding
Target: RNA binding protein fox-1 homolog 2, RRM domain, GST-SBP tag (RBFOX2, Homo sapiens, UniProt O43251-10, residues 100-194)
Notes: natural RNA segment, single round, ends assumed
All sequences stand within: GGGAGUUCUACAGUCCGACGAUC … UGGAAUUCUCGGGUGCCAA
Residues (chain): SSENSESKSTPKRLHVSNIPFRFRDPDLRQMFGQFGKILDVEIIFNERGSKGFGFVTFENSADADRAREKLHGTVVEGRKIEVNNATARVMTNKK
Oligonucleotide	RBNS enrichment (R)
AAACAAAACAAAGGCUGUUUUUCCUAAUUUUGGCAUGAACCCCCCCUUGUUCCAAAUGAAGACGGCAUCACGAAGCAGCUCCAAAAGGAAAAGCUUGGGCGGUGCCCAGC	0.336
AGAAUGUACAUCAUCCCUCUUGGCCCAUUACAGUACUGCUCUCAGGUUCCUAUCAGUCCAUAUAAACUCACUGACCAUAUGGUCAGCCUGGACCGGCCUUCUCAGAUGGC	0.242
GCUGACCACAUAUUAUGCCAGUGACCAGUAUGACAGGAGAUGGGGCCCUGCUGCCAGUCAUCUCCACUGAAUAAAGAAUAAUGCUCCUCUUUCAGGGUAAUAAAGUGGGG	0.457
UAUGCAGGCGUGGUGUUGGCAGCCUCACUGUAGAGCAGGGUGCACGGGUCUGUAGUUGAGGACGAGAUUGAGAGCUGUUAAUCCACCAAAUGCAAUGGCUCAGAACAAUU	1
GCCAUAAUUCCACCAUCAUACAGAUCAGGCAGUGUUUAAAAUGAUGGUAGGUAGCACAGUGGACAGUCUUUGAUCAUCAUGUAGAAUAUGGCUAUGAAUCAGGAAAGAGA	0.989
CACUUUAUUCUAUGGCUAGAAAGUCAGUGGAAAGUAAAUGUGCCAAACUCACUUGUCAGAACACACGAGCAGAUGGCAGAGUCCUCCUCCCCAGCAGGAACAAACGGCAU	0.458
AGUUAGCAUUUAUUGUUUUGAUGAAACGUGACACAUCAUGGGAUAUAUAUAUAUAUAUAAAGAACUUAAUUCUUGUGGUGCAGUCUUGAUAGUUUUGAAUGUUGCUUAAA	1.43
AAGAAAGCCUGUCUGGAGAAGUGUGAUGCCCAAGAAGCACGGAAAGCUACGCCGGUGGAAUGUCAGUGUGCUGCUCUGUAGGGAACUGCAGAGCUUAGAGGACUGACUGC	0.827

Block 3 — target: CCNB3, cyclin fold, Cln2 fusion (human); method: yeast growth competition, sequencing; matrix: yeast; notes: weak parent motif; baseline: not given; reading: higher = stronger binding
Starting sequence: USP37 docking peptide (human); PSAKRSLGFLPQP
Substitution	normalised enrichment score
PAAKRSLGFLPQP [S2A]	0.243
PSAKRSLGALPQP [F9A]	-0.18
PSAKRSLGFLPAP [Q12A]	0.554
PSAKRSLGFAPQP [L10A]	0.0455
PSAKASLGFLPQP [R5A]	0.225
PSAKRSLGFLPQA [P13A]	0.179

Block 4 — method: RNA Bind-n-Seq; form: RNA; matrix: in vitro; concentration: 200 nM; notes: whole 134-nt RNA, ends assumed; added: 150 mM KCl; baseline: input library; reading: higher = stronger binding
Target: Ras GTPase-activating protein-binding protein 1, full length (G3BP1, Homo sapiens, UniProt Q13283)
UniProt Q13283, sequence (whole entry, looked up): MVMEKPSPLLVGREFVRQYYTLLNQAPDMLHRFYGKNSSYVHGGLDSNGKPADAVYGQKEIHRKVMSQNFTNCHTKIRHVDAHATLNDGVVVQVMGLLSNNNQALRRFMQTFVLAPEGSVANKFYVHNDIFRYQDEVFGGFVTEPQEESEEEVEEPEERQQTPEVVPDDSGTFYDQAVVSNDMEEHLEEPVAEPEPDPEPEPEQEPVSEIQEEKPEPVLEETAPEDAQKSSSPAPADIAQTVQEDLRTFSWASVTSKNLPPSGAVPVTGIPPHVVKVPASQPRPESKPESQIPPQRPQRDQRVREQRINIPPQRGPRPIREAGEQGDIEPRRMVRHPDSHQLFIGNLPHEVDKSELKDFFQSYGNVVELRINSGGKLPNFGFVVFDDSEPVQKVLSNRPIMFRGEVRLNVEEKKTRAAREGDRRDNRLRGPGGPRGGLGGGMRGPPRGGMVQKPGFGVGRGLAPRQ
All sequences stand within: GGGAGUUCUACAGUCCGACGAUC … UGGAAUUCUCGGGUGUCAAGG
Oligonucleotide	log2 enrichment
CACAGACAACACGCACCCACACAGACACAGAGGGAAGGGGUUGGGAUGGGGACAGGGUGCACAGCAGGGCGGGGUAGGACCCAAGCCCCU	1.92
CCCAUGCAGGUGGGCAUCUUUGGGAAGUGGGGCAAGGGGGGGAUAGGGAGGGGGGUAACACUUUGGGAACAGGUGGUCCCAGGUCGUUUC	0.971
CAAGUCCUGUGCUACACAUCGUAUGUACCGAAUCGGUUUUUUUGGUGGUUUUUGGAAAGUAUUAUGUUACGCCGUUCGGAUCUGCACUUC	-0.903
UGGGAGGUGGAUUUUGUUUAUUUUUUUAGCUCAUUUCCAGGGGUGGGAAUUUUUUUUUAAUAUGUGUCAUGAAUAUAGUUGUUUUUGAAA	0.219
AAGUCCUGUGCUACACAUCGUAUGUACCGAAUCGGUUUUUUUGGAGGAAAAAAAGGAAAGUAUUAUGUUACGCCGUUCGGAUCUGCACUU	-0.928
CACAGACAACACGCACCCACACAGACACAGAGGGAAGGGGUUGGGAUGGGGACAGGGUGCACAGCAGGGCGGGGUAGGCCCCCAGCCCCU	1.83
AGUCCUGUGCUACACAUCGUAUGUACCGAAUCGGGGAAAAGGGAAAAGGGAAAAGGGGAAAGUAUUAUGUUACGCCGUUCGGAUCUGCAC	0.414
UGGCCCUGGUGGCAUGCGGGGAGGAAGUGGUGGCCUCAUGGAUCGUGGUGGUCCCGGUGGAAUGUUCAGAGGUGGCCGUGGUGGAGACAG	0.345
GCAGGAAGUAAAAACAAAUGGAAAUGCUUCGGAUAGUGGCAGGGGUGGGGGUUGAAAAGGAAAGGGUGGGAUGGGAGUGGGUAAAGAGUU	1.31
